Published values gathered from unrelated publications.
Each numbered part is a random draw from the data of one study; scales do not carry over between parts.
Chain of UniProt Q9C0B0 (30-357, looked up): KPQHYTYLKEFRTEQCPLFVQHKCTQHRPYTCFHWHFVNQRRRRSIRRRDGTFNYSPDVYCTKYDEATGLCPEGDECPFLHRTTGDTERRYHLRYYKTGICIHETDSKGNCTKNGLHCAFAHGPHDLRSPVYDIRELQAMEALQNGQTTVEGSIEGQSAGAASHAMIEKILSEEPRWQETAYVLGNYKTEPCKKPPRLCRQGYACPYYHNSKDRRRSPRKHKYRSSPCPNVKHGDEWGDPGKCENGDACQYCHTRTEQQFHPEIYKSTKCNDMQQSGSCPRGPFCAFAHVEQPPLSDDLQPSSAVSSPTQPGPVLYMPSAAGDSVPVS

Study 1 — organism: Vesicular stomatitis virus; effect on: pseudovirus infection; technique: FDA-approved drug library screen; tested at: concentration not given; setting: SARS-CoV-2 spike pseudotype; baseline: vehicle
| SMILES | GFP-positive cells [%] |
| --- | --- |
| O=C([O-])/C=C/C(=O)[O-].[Fe+2] | 103 |
| CNC(=C[N+](=O)[O-])NCCSCc1ccc(CN(C)C)o1.Cl | 80.6 |
| NC(=O)CCC(N)C(=O)O (racemic) | 149 |

Study 2 — technique: protein binding microarray; form: double-stranded DNA, one strand shown; medium: in vitro; tested at: not given; baseline: not given; reading: higher = stronger binding
Target: Histone acetyltransferase KAT6A, winged helix 2, GST fusion (KAT6A, Homo sapiens, UniProt Q92794, residues 85-181)
Setting: 8-mer, flanks averaged, mean of 2 arrays, mostly near background
Residues (chain): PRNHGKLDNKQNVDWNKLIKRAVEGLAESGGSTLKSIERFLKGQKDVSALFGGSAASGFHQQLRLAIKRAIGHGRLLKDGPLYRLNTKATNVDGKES
| Oligonucleotide | E-score |
| --- | --- |
| CTCTCTCA | -0.105 |
| ACGACTCT | -0.279 |
| CCCATTCG | -0.00476 |
| CGTGTACC | -0.0322 |
| CCTCAAAA | -0.0259 |
| GATGCTGC | 0.027 |
| GGATGTAC | -0.182 |
| CGCAGACG | 0.173 |

Study 3 — technique: RNA Bind-n-Seq; form: RNA; medium: in vitro; tested at: 365 nM; baseline: no-protein control; reading: higher = stronger binding
Target: RNA binding protein fox-1 homolog 2, RRM domain, GST-SBP tag (RBFOX2, Homo sapiens, UniProt O43251-10, residues 100-194)
Setting: natural RNA segment, single round, ends assumed
Target sequence (chain): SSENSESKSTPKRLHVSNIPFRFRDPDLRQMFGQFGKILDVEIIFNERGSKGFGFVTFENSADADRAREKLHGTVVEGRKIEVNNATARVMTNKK
| Oligonucleotide | RBNS enrichment (R) |
| --- | --- |
| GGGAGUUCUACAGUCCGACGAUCGGGAGAAUUGCACACAGAUGUGAAAUGAAUGUAAUCUAAUAGAAGCCUAAUCAGCCCACCAUGUUCUCCACUGAAAAAUCCUCUUUCUUUGGGGUUUUUCUUUCUUUCUUUGGAAUUCUCGGGUGCCAA | 2.65 |
| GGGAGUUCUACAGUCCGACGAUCGCUUUUUUUUUUUAAAGUAAGAAUAGCUUGUUAGUAUAUCAAUGUUCAUGGCUAAUGUUAUCUCAUUUUGUUAGUCGUUAUUUUGGAAUUACAUGAUGUGUGAUUUAGGGUGGAAUUCUCGGGUGCCAA | 0.499 |
| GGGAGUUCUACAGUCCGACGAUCUAACUCAAAAAUUAGGAUGCAAGAGAAAAUACUUCUCUAGAUCCAAACACUGGCCUUCUGUUCCUCUUGAAAUUUACCUCCCAACUUGUUCAUCUCUGCCUUUGGACUAAUGGAAUUCUCGGGUGCCAA | 0.556 |
| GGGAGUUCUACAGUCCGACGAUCCUCUCCAUCAGUCACAGACUCCCCCUGUUGCAAAGUGUCAGGCUGACUCGACAGUCACCGUAAAAUCUGAGUCAGUCACACACAGGCUGUCAGCCACGGCUUCCACUUGCUGGAAUUCUCGGGUGCCAA | 0.349 |
| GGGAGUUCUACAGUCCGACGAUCCUCAGCUUUUGGGCUAGCCCAGGCUUCCCUAAGAUCUGCUUUUUCUAUUUCUCCCAACCAAAUCCUCUUAAAGACCCUUUGCUAUGUAGUCUCAUGGUCUAGCAUGCAUCUGGAAUUCUCGGGUGCCAA | 3.03 |
| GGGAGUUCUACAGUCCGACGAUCAAAAAAAAAAGAAUAGGUAAAUUGACAAGAAAUAUUUAUUGUUUUCCCUUAUUGCCUUAUUGUCCCUGGCCACAAACUGUUCAUCUCUUCUCUAAUGUGUAAGUGGAGCCUGGAAUUCUCGGGUGCCAA | 0.499 |
| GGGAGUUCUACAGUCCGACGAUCUCUCCCAUCUUUUCUCUCUGUUCUCAGCUCCCCUGUCCCCUCCCUCGGCUCUAGACUUGGGGGAGGGGUUGCCACAGGCCUCCCAGUCUAAAACCCACCUUUGUCUGAGGUGGAAUUCUCGGGUGCCAA | 0.635 |
| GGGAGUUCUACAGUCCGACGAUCGCAGACUUUCUUUUGUCUGUUUCUAAAAUGUGAAGCUUUAGGACCAAAUUGUUAGACAGCAUCAGGAUUGCGGAUUAUCUCAAGUAGAUUUUGUUAGAGUUCAGAGCACAUGGAAUUCUCGGGUGCCAA | 6.21 |

Study 4 — mode: inhibitor; tested at: 20 µM
Target: Replicase polyprotein 1ab, nsp13 helicase (rep, Severe acute respiratory syndrome coronavirus 2, UniProt P0DTD1)
| SMILES | inhibition [%] |
| --- | --- |
| Cn1c(=O)c2c(ncn2CCO)n(C)c1=O | -0.65 |
| CCN(CCCc1ccccc1)CCCc1ccccc1 | -1.28 |
| c1ccc2c(Cc3c[nH]c4ccccc34)c[nH]c2c1 | 1.92 |
| CN[C@@H](C)C(=O)N[C@H](C(=O)N1CCC[C@H]1C(=O)Nc1snnc1-c1ccccc1)C1CCCCC1 | -0.47 |
| CC(=O)N[C@H]1[C@H]([C@H](O)[C@H](O)CO)OC(O)(C(=O)O)C[C@@H]1O (stereo partly drawn) | 2.48 |
| Cc1c(Cn2c(C)nc3c(C(=O)O)cc(N4CCOCC4)cc32)cccc1C(F)(F)F | 6.87 |
| O=C1CC[C@@]2(O)[C@H]3Cc4ccc(O)c5c4[C@@]2(CCN3CC2CC2)[C@H]1O5 | 1.32 |
| CN1c2ccccc2C(=O)N2CCc3c([nH]c4ccccc34)C21 (stereo in doubt) | 5.84 |
| COc1cc(OC)c(NC(=O)Nc2cc(C)on2)cc1Cl | -2.87 |
| O=C(Nc1cccc(C(F)(F)F)c1)Nc1ccc(Br)cc1-c1nn[nH]n1 | 13.6 |
| O=C(Oc1cccc2cccnc12)c1ccccc1 | -1.47 |
| CCNC(=O)C#Cc1ccc2c(C(=Nc3ccc(CN(C)C)cc3)c3ccccc3)c(O)[nH]c2c1 | 7.1 |
| CCCCC(=O)O[C@]1(C(=O)CO)CC[C@H]2[C@@H]3CCC4=CC(=O)CC[C@]4(C)[C@H]3[C@@H](O)C[C@@]21C | -2.37 |
| CC1=C(/C=C/C(C)=C/C=C/C(C)=C/C(=O)Nc2ccc(O)cc2)C(C)(C)CCC1 | 12.8 |
| COc1ccc(-c2ccc3ncc4c(c3c2)n(-c2ccc(N3CCNCC3)c(C(F)(F)F)c2)c(=O)n4C)cn1 | 20.9 |
| Cn1c(C#N)ccc1-c1ccc2c(c1)C(C)(C)OC(=S)N2 | 4.14 |
| CCCCCCCC/C=C/CCCCCCCC(=O)OC[C@H]1O[C@@H](n2ccc(N)nc2=O)C(F)(F)[C@@H]1O | 8.36 |
| CC(=O)c1ccc2c(c1)[C@H](NC(=O)c1ccc(F)c(Cl)c1)[C@H](O)C(C)(C)O2 | 0.65 |
| CC(=O)NCCCOc1ccc(C(=O)N2CCC(N3C(=O)CCc4ccccc43)CC2)cc1 | -0.58 |
| Cc1cc(C)nc(NS(=O)(=O)c2ccc(NC(=S)NC(=O)COc3ccc(Br)cc3Cl)cc2)n1 | 1.3 |
| Nc1cc(C(Cl)=C(Cl)Cl)c(S(N)(=O)=O)cc1S(N)(=O)=O | 2.8 |
| CN1CCC(CNc2ccc3ncc(-c4cccc(OC(F)(F)F)c4)n3n2)CC1 | 11.3 |
| CCOC(=O)Nc1ccc2c(c1)N(C(=O)CCN1CCOCC1)c1ccccc1S2 | 3.43 |
| N=C(N)NC(=N)N1CCOCC1 | -1.64 |
| Nc1ccn([C@H]2C[C@H](O)[C@@H](CO)O2)c(=O)n1 | 2.12 |

Study 5 — effect on: enzyme activity; mode: inhibitor; tested at: 20 µM; setting: primary screen
Target: Replicase polyprotein 1ab, main protease (rep, Severe acute respiratory syndrome coronavirus 2, UniProt P0DTD1)
| Compound | inhibition [%] |
| --- | --- |
| CN1CCN(C(=O)c2ccc(-c3ccc4c(C=O)c(O)ccc4c3)s2)CC1 | 45.5 |
| C=C1c2cccc(O)c2C(=O)C2=C(O)[C@]3(O)C(=O)C(C(N)=O)=C(O)[C@@H](N(C)C)[C@@H]3[C@@H](O)[C@H]12 | 95.2 |
| CCn1c(-c2ccc(Cl)cc2)n[nH]c1=O | 98.2 |
| COc1ccc2[nH]c(S)nc2c1 | 97.9 |

Study 6 — technique: RNA Bind-n-Seq; form: RNA; medium: in vitro; tested at: 200 nM; setting: whole 134-nt RNA, ends assumed; with: 150 mM LiCl; baseline: input library; reading: higher = stronger binding; each molecule: 7-deaza-guanosine replaces G
Target: Fragile X messenger ribonucleoprotein 1, C-terminal low-complexity region (Fmr1, Mus musculus, UniProt P35922)
| Oligonucleotide | log2 enrichment |
| --- | --- |
| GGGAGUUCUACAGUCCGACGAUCUCCUGUGCUACACAUCGUAUGUACCGAAUCGGAAAAAAAGGAAAAAAAGGAAAAAAAGGGAAAGUAUUAUGUUACGCCGUUCGGAUCUGCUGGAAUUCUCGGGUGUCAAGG | -0.781 |
| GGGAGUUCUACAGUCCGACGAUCCACAGACAACACGCACCCACACAGACACAGAGGGAAGGGGUUAAAAUGGGGACAGGGUGCACAGCAGGGCGGGGUAGGACCCCAGCCCCUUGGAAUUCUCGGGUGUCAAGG | -0.566 |
| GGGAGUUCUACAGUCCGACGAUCUCAAGUCCUGUGCUACACAUCGUAUGUACCGAAUCGGGGCCGGGGCCGGGCCGGAAAGUAUUAUGUUACGCCGUUCGGAUCUGCACUUCCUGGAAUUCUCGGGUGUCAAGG | 0.263 |
| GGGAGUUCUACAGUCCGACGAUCUCCUGUGCUACACAUCGUAUGUACCGAAUCGGGGCCCCCGGGGCCCCCGGGCCCCCGGGGAAAGUAUUAUGUUACGCCGUUCGGAUCUGCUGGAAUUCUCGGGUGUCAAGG | -2.34 |
| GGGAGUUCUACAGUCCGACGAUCGGCACAGGUGCCCGACCAUACACUGGGAAAGUUGGUGCUGAGGAUGCCGAUGGGAUUGACAUGGCCUACCGGGUGCUGGCUGACCACGCUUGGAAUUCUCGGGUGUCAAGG | -2.76 |
| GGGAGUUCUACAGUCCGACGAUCCCUCAAGUCCUGUGCUACACAUCGUAUGUACCGAAUCGGGAGGAGGGGAGGGAAAGUAUUAUGUUACGCCGUUCGGAUCUGCACUUCCAGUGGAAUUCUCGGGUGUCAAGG | -0.24 |
| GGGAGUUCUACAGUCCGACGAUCUGGCCCUGGUGGCAUGCGGGGAGGAAGAGGUGGCCUCAUGGAUCGUGUUGGUCCCGGUGGAAUGUUCAGAGGUGGCCGUGGUGGAGACAGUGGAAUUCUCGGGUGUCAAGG | -0.193 |
| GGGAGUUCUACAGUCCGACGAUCUGUCCCUGGUGGCAUGCGGGGAGGAAGAGGUGGCCUCAUGGAUCGUGGUGGUCCCGGUGGAAUGUUCAGAGGUGGCCGUGGUGGAGACAGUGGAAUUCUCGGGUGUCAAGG | -0.142 |

Mixed results
| Oligonucleotide | target | assay | test system | conditions | scale | measurement | value |
| --- | --- | --- | --- | --- | --- | --- | --- |
| GGGAGUUCUACAGUCCGACGAUCGAACCUAAACUUACCGCAAAAGAGCCAAGCAGCCGCAGUUUUUGUAAAUGUAAAAAUAAUCCGAUCCAGACUUUGUUUCCUUCAAUUUUAAAAAUAAAAAAUACCUCAGUGCUAUGUUUUCAACAGAGGAUUGAGCAUCA | RING finger protein unkempt homolog, zinc fingers 1-6, SBP tag (UNK, Homo sapiens, UniProt Q9C0B0, residues 30-357) | RNA Bind-n-Seq | RNA, in vitro | 100 nM, RNA with constant flanks, ends assumed | baseline: input RNA pool, higher = stronger binding | bound/input enrichment | 0.854 ratio |

A few entries again (study 4):
| SMILES | inhibition [%] |
| --- | --- |
| Nc1cc(C(Cl)=C(Cl)Cl)c(S(N)(=O)=O)cc1S(N)(=O)=O | 2.8 |
| Cc1c(Cn2c(C)nc3c(C(=O)O)cc(N4CCOCC4)cc32)cccc1C(F)(F)F | 6.87 |
| CC(=O)NCCCOc1ccc(C(=O)N2CCC(N3C(=O)CCc4ccccc43)CC2)cc1 | -0.58 |
| CN1c2ccccc2C(=O)N2CCc3c([nH]c4ccccc34)C21 (stereo in doubt) | 5.84 |
| CCNC(=O)C#Cc1ccc2c(C(=Nc3ccc(CN(C)C)cc3)c3ccccc3)c(O)[nH]c2c1 | 7.1 |
| CCCCCCCC/C=C/CCCCCCCC(=O)OC[C@H]1O[C@@H](n2ccc(N)nc2=O)C(F)(F)[C@@H]1O | 8.36 |
| Cn1c(C#N)ccc1-c1ccc2c(c1)C(C)(C)OC(=S)N2 | 4.14 |
